# Results from different studies.
# Each line is one published result; not all experiments were run side by side. Numbers after ± are the reported error.
# Chain of UniProt P49761 (whole entry, looked up): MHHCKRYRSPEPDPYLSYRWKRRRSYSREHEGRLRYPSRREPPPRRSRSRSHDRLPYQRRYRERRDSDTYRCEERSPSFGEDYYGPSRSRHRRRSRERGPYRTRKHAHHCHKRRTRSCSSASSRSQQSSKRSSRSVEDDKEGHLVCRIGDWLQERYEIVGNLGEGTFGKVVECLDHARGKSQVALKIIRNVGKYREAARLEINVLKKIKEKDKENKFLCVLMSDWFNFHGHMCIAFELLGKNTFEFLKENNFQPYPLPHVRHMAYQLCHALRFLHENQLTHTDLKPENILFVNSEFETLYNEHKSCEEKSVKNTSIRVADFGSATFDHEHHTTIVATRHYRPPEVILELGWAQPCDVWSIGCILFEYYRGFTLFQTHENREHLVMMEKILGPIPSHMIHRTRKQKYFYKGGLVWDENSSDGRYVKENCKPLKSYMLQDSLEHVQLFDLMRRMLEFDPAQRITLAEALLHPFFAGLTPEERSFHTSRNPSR
# Chain of UniProt Q15046 (whole entry, looked up): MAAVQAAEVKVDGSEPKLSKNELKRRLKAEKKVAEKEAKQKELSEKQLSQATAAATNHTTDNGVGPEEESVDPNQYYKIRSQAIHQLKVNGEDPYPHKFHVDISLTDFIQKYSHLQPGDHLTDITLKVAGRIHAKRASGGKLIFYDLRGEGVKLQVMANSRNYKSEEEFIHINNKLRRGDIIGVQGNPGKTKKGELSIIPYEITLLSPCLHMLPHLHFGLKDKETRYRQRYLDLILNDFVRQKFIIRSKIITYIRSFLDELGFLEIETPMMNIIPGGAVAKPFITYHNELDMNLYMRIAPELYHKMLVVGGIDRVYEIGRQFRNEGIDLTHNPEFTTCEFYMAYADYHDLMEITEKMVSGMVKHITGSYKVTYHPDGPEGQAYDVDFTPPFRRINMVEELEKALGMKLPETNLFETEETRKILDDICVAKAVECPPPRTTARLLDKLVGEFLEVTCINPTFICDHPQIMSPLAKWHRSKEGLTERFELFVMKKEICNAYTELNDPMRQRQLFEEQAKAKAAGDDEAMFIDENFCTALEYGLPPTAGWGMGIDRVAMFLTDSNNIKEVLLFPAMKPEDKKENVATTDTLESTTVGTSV
# Chain of UniProt Q96LB2 (whole entry, looked up): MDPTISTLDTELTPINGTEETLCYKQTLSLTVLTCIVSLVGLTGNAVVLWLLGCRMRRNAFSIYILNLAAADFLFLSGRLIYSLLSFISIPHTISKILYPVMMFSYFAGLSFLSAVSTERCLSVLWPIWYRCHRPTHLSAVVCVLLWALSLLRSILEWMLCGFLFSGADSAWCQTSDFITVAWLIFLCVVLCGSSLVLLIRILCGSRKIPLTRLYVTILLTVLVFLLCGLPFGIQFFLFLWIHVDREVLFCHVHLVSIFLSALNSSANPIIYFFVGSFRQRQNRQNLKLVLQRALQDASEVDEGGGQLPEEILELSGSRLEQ
Compound,tested on,test,system,conditions,how to read,quantity,result
C[C@H](C(=O)N[C@H]1COc2ccccc2[C@@H]1S(C)(=O)=O)c1ccc(F)cc1,"NMDA receptor, rat, Phencyclidine site",binding,,"10 µM, Eurofins selectivity panel",,inhibition,0%
CCCCCCCCCC(=O)N[C@H]1CCOC1=O,ExpR1 (Pectobacterium carotovorum),"cellulase activity, agonist","Pectobacterium carotovorum, single-ExpR1 strain","200 µM, 4 h",baseline: OHHL,activation,6%
CCC(CC)Nc1c([N+](=O)[O-])cc(C)c(C)c1[N+](=O)[O-],anti-BL mouse monoclonal antibody,"binding, indirect competitive ELISA",,"pH 7.4, 1% methanol",,IC50,> 1000 ng/mL
COc1cc(Nc2ncc(F)c(Nc3ccc4c(n3)NC(=O)C(C)(C)O4)n2)cc(OC)c1OC,KATP potassium channel,,,,,IC50,> 10000 nM
CCCCCC(=O)CC(=O)N[C@H]1CCOC1=O,ExpR1 (Pectobacterium carotovorum),"cellulase activity, antagonist","Pectobacterium carotovorum, single-ExpR1 strain","5 µM, 4 h, together with: OHHL 5 µM",,inhibition,65%
NCCc1c[nH]c2ccc(O)cc12,NMT from Rhinella marina,,,"10 min, 30 °C",,kcat,0.0012 s⁻¹
O=C(Cc1cccc2ccccc12)N[C@H]1CCOC1=O,ExpR1 (Pectobacterium carotovorum),"cellulase activity, agonist","Pectobacterium carotovorum, single-ExpR1 strain","200 µM, 4 h",baseline: OHHL,activation,7%
COc1c(CCC[P+](c2ccccc2)(c2ccccc2)c2ccccc2)cc2c(c1OC)OCO2.[I-],UACC-62,SRB,,,,LC50,-4.48 log M
COc1ccc(N2C(=O)N(c3c(C)cccc3Cl)Cc3cnc(Nc4ccc(C5CCN(C)CC5)cc4OC)nc32)nc1,"CLK3 (Homo sapiens, UniProt P49761)",kinase activity,,0.5 µM,,inhibition,1.65%
CCCN(CCC)c1c([N+](=O)[O-])cc(C(F)(F)F)cc1[N+](=O)[O-],anti-BL mouse monoclonal antibody,"binding, indirect competitive ELISA",,"pH 7.4, 1% methanol",,IC50,> 1000 ng/mL
COc1cc(CCC[P+](c2ccccc2)(c2ccccc2)c2ccccc2)c(OC)c2c1OCO2.[I-],CCRF-CEM,SRB,,,,Log10GI50,-5.79 log M
C[C@@H](O)[C@@H](CO)NC(=O)[C@@H](CCCNC(=N)N)NC(=O)[C@@H]1CCCN1C(=O)[C@@H]1CSSC[C@H](NC(=O)[C@H](Cc2ccccc2)NC(=O)CN2CCN(CC(=O)O)CCN(CC(=O)O)CCN(CC(=O)O)CC2)C(=O)N[C@@H](Cc2ccc(O)cc2)C(=O)N[C@@H](Cc2ccccc2)C(=O)N[C@@H](CCC(N)=O)C(=O)N[C@@H](CC(N)=O)C(=O)N1 [gallium-68 labelled],,,"Wistar rat, brain","intravenous, 8 MBq, 30 min, group mean",,tissue uptake,0.04 %ID/g
Nc1ncnc2c1ncn2[C@@H]1O[C@H](COP(=O)(O)CP(=O)(O)OP(=O)(O)O)[C@@H](O)[C@H]1O,purinergic P2X receptor,radioligand binding,,,,IC50,29 nM
O=C(Cc1cc(C(F)(F)F)cc(C(F)(F)F)c1)NC1CCOC1=O (stereo not drawn),ExpR1 (Pectobacterium carotovorum),"cellulase activity, antagonist","Pectobacterium carotovorum, single-ExpR1 strain","5 µM, 4 h, together with: OHHL 5 µM",,inhibition,4%
CN1CCN(c2cc(-c3ccncc3)c(-c3ccc4ccccc4c3)nn2)CC1,"MRGPRX1 (Homo sapiens, UniProt Q96LB2)","agonist, FLIPR",,12.5 µM,,activation,9.5%
CC(C)CC(=O)OC[C@H]1O[C@@](C#N)(c2ccc3c(N)ncnn23)[C@H](O)[C@@H]1O,GABA transporter rat,radioligand binding,,20 µM,,inhibition,6%
[Ni+2],PP2C,enzyme activity,,concentration not given,,activity class,active
O=C(Cc1cccc([N+](=O)[O-])c1)N[C@H]1CCOC1=O,ExpR1 (Pectobacterium carotovorum),"cellulase activity, agonist","Pectobacterium carotovorum, single-ExpR1 strain","200 µM, 4 h",baseline: OHHL,activation,115%
CC[C@H](C)[C@@H]1NC(=O)[C@@H]2CCCN2C(=O)[C@H](CC(C)C)NC(=O)[C@H](CC(C)C)NC(=O)CNC(=O)[C@@H](NC(=O)[C@@H](NC(=O)[C@H](CC(=O)O)NC(=O)CNC(=O)[C@@H](NC(=O)[C@H](C)NC(=O)CNC(=O)[C@H](CCCCN)NC(=O)[C@H](CC(C)C)NC(=O)[C@H](CC(C)C)NC(=O)[C@H](CCCCN)NC(=O)CNC(=O)[C@@H](NC(=O)[C@@H](N)CC(C)C)C(C)C)C(C)C)C(C)C)CSSC[C@@H](C(=O)O)NC1=O,,"RNA-seq, item: Ubald2","mouse, traumatic brain injury model, frontal cortex and hippocampus",dose not given,baseline: TBI alone,log2 fold change,-1.42
C[C@H]1CN(c2n[nH]c3nc(N[C@H]4CC[C@H](NS(=O)(=O)CCC(F)(F)F)CC4)ncc23)CCO1,"Lysine--tRNA ligase (KARS1, Homo sapiens, UniProt Q15046)","Kinobeads competition, item: KARS",,"0.16 µM, unit not given",baseline: vehicle,remaining binding,0.95
Nc1ncnc2c1ccn2[C@@H]1O[C@@H]2COP(=O)(O)O[C@H]2[C@H]1O,anti-cAMP antibody,"binding, cAMP EIA, acetylated",,,,EC50,> 10000 nM
N#Cc1c(N)nc(SCC(N)=O)c(C#N)c1-c1ccc(OCC2CC2)cc1,ERK1/2 rat,increase of activity,H9c2,no PMA,,EC50,463 ± 126 nM
CC[C@H](C)[C@H](NC(=O)[C@H](Cc1ccccc1)NC(=O)[C@H](CCC(=O)O)NC(=O)[C@H](CCCNC(=N)N)NC(=O)[C@H](C)NC(=O)[C@H](C)NC(=O)[C@H](CCC(N)=O)NC(=O)[C@H](CCC(=O)O)NC(=O)[C@H](CCC(=O)O)NC(=O)[C@H](CC(C)C)NC(=O)[C@H](Cc1ccc(O)cc1)NC(=O)[C@H](CO)NC(=O)[C@H](CO)NC(=O)[C@@H](NC(=O)[C@H](CC(=O)O)NC(=O)[C@H](CO)NC(=O)[C@@H](NC(=O)[C@H](Cc1ccccc1)NC(=O)[C@@H](NC(=O)CNC(=O)[C@H](CCC(=O)O)NC(=O)[C@H](C)NC(=O)CCc1c[nH]cn1)[C@@H](C)O)[C@@H](C)O)C(C)C)C(=O)N[C@@H](C)C(=O)N[C@@H](Cc1c[nH]c2ccccc12)C(=O)N[C@@H](CC(C)C)C(=O)N[C@H](C(=O)N[C@@H](CCCNC(=N)N)C(=O)NCC(=O)N[C@@H](CCCNC(=N)N)C(=O)N[C@@H](CCCCNC(=O)COCCOCCNC(=O)COCCOCCNC(=O)CC[C@H](NC(=O)CCCCCCCCCCCCCCCCC(=O)O)C(=O)O)C(=O)NCC(=O)NCC(=O)N[C@@H](CO)C(=O)N[C@@H](CCCCNc1c(NCCCCCN(O)C(=O)CCC(=O)NCCCCCN(O)C(=O)CCC(=O)NCCCCCN(O)C(C)=O)c(=O)c1=O)C(=O)O)C(C)C [zirconium-89 labelled],,,"rat, femur","intravenous, 3 nmol/kg, 24 h",,tissue uptake,0.15 %ID/g
COc1ccc(-n2nc(C(C)=O)s/c2=N\N=C(/C)c2ccc(NC(C)=O)cc2)cc1,MCF7,,,10 µM,,toxicity,93.3%
[Cd+2],PP2C,enzyme activity,,concentration not given,,activity class,inactive
O=C(Cc1ccc(Br)cc1)N[C@H]1CCOC1=O,ExpR1 (Pectobacterium carotovorum),"cellulase activity, agonist","Pectobacterium carotovorum, single-ExpR1 strain","200 µM, 4 h",baseline: OHHL,activation,4%
Oc1cc(Cl)ccc1Oc1ccc(Cl)cc1Cl,nanobody T1 (Bactrian camel),"ELISA, IC50-based",,"concentration not given, coating antigen T1/H1-BSA",,cross-reactivity,100%

# A few entries again:
Compound,tested on,test,system,conditions,how to read,quantity,result
CC[C@H](C)[C@H](NC(=O)[C@H](Cc1ccccc1)NC(=O)[C@H](CCC(=O)O)NC(=O)[C@H](CCCNC(=N)N)NC(=O)[C@H](C)NC(=O)[C@H](C)NC(=O)[C@H](CCC(N)=O)NC(=O)[C@H](CCC(=O)O)NC(=O)[C@H](CCC(=O)O)NC(=O)[C@H](CC(C)C)NC(=O)[C@H](Cc1ccc(O)cc1)NC(=O)[C@H](CO)NC(=O)[C@H](CO)NC(=O)[C@@H](NC(=O)[C@H](CC(=O)O)NC(=O)[C@H](CO)NC(=O)[C@@H](NC(=O)[C@H](Cc1ccccc1)NC(=O)[C@@H](NC(=O)CNC(=O)[C@H](CCC(=O)O)NC(=O)[C@H](C)NC(=O)CCc1c[nH]cn1)[C@@H](C)O)[C@@H](C)O)C(C)C)C(=O)N[C@@H](C)C(=O)N[C@@H](Cc1c[nH]c2ccccc12)C(=O)N[C@@H](CC(C)C)C(=O)N[C@H](C(=O)N[C@@H](CCCNC(=N)N)C(=O)NCC(=O)N[C@@H](CCCNC(=N)N)C(=O)N[C@@H](CCCCNC(=O)COCCOCCNC(=O)COCCOCCNC(=O)CC[C@H](NC(=O)CCCCCCCCCCCCCCCCC(=O)O)C(=O)O)C(=O)NCC(=O)NCC(=O)N[C@@H](CO)C(=O)N[C@@H](CCCCNc1c(NCCCCCN(O)C(=O)CCC(=O)NCCCCCN(O)C(=O)CCC(=O)NCCCCCN(O)C(C)=O)c(=O)c1=O)C(=O)O)C(C)C [zirconium-89 labelled],,,"rat, femur","intravenous, 3 nmol/kg, 24 h",,tissue uptake,0.15 %ID/g
Nc1ncnc2c1ccn2[C@@H]1O[C@@H]2COP(=O)(O)O[C@H]2[C@H]1O,anti-cAMP antibody,"binding, cAMP EIA, acetylated",,,,EC50,> 10000 nM
